Published values pooled from the literature.
Protocols differ between the studies behind these lines. Values joined by “and” are separate records of one study, mostly repeats; a detail may differ. ± marks the error that the study gave.
APP: Amyloid-beta precursor protein (APP, Homo sapiens, UniProt P05067)
APP Aβ40 fibrils: Amyloid-beta precursor protein, Aβ40 fibrils (APP, Homo sapiens, UniProt P05067)

Structure (SMILES) = NC(Cc1ccccc1)C(O)CNCc1cccc(C(F)(F)F)c1 (stereo not shown); target = Amyloid-beta precursor protein, amyloid-beta 1-40 oligomers (APP, Homo sapiens, UniProt P05067); test = binding; measurement = Kd; value = ~2 µM
Structure (SMILES) = COc1c(C(=O)/C=C/c2ccccc2)ccc2occc12; target = APP; test = amyloid aggregation, inhibitor, fluorescence; measurement = IC50; value = > 200 µM
Structure (SMILES) = CC(=O)N[C@H]1CC(=O)N[C@@H](Cc2ccccc2)C(=O)N[C@@H](CC(=O)O)C(=O)N[C@H](C(=O)N[C@@H](CCCNC(=N)N)C(=O)N[C@H](C(=O)N[C@@H](CCCNC(=N)N)C(=O)N[C@@H](C)C(=O)N[C@@H](CCC(=O)O)C(=O)N[C@@H](CCCNC(=N)N)C(=O)N[C@@H](C)C(=O)N[C@@H](CCC(=O)O)C(N)=O)C(C)C)CNC1=O; target = APP Aβ40 fibrils; test = isothermal titration calorimetry; test system = sodium phosphate buffer; setting = pH 8, 25 °C, peptide titrated into protein; measurement = Kd; value = 25.1 µM
Structure (SMILES) = Cc1ccc(-c2nc3ccc(/N=N/c4ccc([N+](=O)[O-])cc4)cc3c(-c3ccccc3)c2I)cc1; target = APP Aβ40 fibrils; test = thioflavin T competition; setting = with: preformed fibrils 5 µM, thioflavin T 2 µM; how to read = binding; measurement = Ki; value = 0.204 ± 0.019 µM
Structure (SMILES) = CC1(C)C=Cc2c(ccc3c(=O)cc(-c4ccccc4)oc23)O1; target = APP; test = amyloid aggregation, inhibitor, fluorescence; measurement = IC50; value = 169 µM and 170 µM
Structure (SMILES) = CC(=O)N[C@H]1CC(=O)N[C@@H](Cc2ccccc2)C(=O)N[C@@H](CCCNC(=N)N)C(=O)N[C@H](C(=O)N[C@@H](CC(=O)O)C(=O)N[C@H](C(=O)N[C@@H](CCCNC(=N)N)C(=O)N[C@@H](C)C(=O)N[C@@H](CCC(=O)O)C(=O)N[C@@H](CCCNC(=N)N)C(=O)N[C@@H](C)C(=O)N[C@@H](CCC(=O)O)C(N)=O)C(C)C)CNC1=O; target = APP Aβ40 fibrils; test = binding to Aβ40 fibrils, fluorescence polarization; setting = 24 h, pH 7.4, 25 °C, with: 100 µM Aβ40 fibrils; measurement = Kd; value = 3.8 µM
Structure (SMILES) = CC[C@H](C)[C@@H]1NC(=O)CNC(=O)[C@H](CCSC)NC(=O)[C@H](C(C)C)NC(=O)[C@H]([C@@H](C)O)NC(=O)[C@@H]2CSSC[C@@H]3NC(=O)[C@H](Cc4c[nH]cn4)NC(=O)[C@@H](NC(=O)[C@@H](NC(=O)[C@H](Cc4ccccc4)NC(=O)[C@H](C)N)[C@@H](C)O)CSSC[C@@H](C(=O)N[C@@H](CC(C)C)C(=O)O)NC(=O)[C@H](CSSC[C@H](NC(=O)[C@H](CO)NC(=O)[C@H](CCCNC(=N)N)NC(=O)[C@H](CCCNC(=N)N)NC3=O)C(=O)N[C@@H](Cc3ccc(O)cc3)C(=O)N[C@@H](CO)C(=O)N[C@@H]([C@@H](C)O)C(=O)N[C@@H](CCC(=O)O)C(=O)N[C@@H](Cc3ccc(O)cc3)C(=O)N[C@@H](CO)C(=O)N[C@@H](Cc3ccc(O)cc3)C(=O)NCC(=O)N[C@@H]([C@@H](C)O)C(=O)N2)NC(=O)[C@H](Cc2ccccc2)NC(=O)[C@H](CCCNC(=N)N)NC(=O)[C@H](Cc2c[nH]cn2)NC(=O)[C@H](CC(N)=O)NC1=O; target = APP; test = binding, SPR; setting = pH 7.4; measurement = Kd; value = 0.356 µM
Structure (SMILES) = CC(=O)N[C@H]1CC(=O)N[C@@H](Cc2ccccc2)C(=O)N[C@@H](CCCNC(=N)N)C(=O)N[C@H](C(=O)N[C@@H](CC(=O)O)C(=O)N[C@H](C(=O)N[C@@H](CCCNC(=N)N)C(=O)N[C@@H](C)C(=O)N[C@@H](CCCNC(=N)N)C(=O)N[C@@H](CCC(=O)O)C(=O)N[C@@H](C)C(=O)N[C@@H](CCC(=O)O)C(N)=O)C(C)C)CNC1=O; target = APP Aβ40 fibrils; test = binding to Aβ40 fibrils, fluorescence polarization; setting = 24 h, pH 7.4, 25 °C, with: 100 µM Aβ40 fibrils; measurement = Kd; value = 19 µM
Structure (SMILES) = COC1(c2ccccc2)CC(=O)c2c(cc3c(c2O)C=CC(C)(C)O3)O1 (stereo not shown); target = APP; test = amyloid aggregation, inhibitor, fluorescence; measurement = IC50; value = > 200 µM
Structure (SMILES) = CC(C)C[C@H](NC(=O)[C@@H](N)Cc1ccccc1)C(=O)O; target = Amyloid-beta precursor protein, amyloid-beta 1-40 Q15A (APP, Homo sapiens, UniProt P05067, Q686A); setting = concentration not given; measurement = Kd; value = 126 ± 86.6 µM

Repeated from above:
Structure (SMILES) = Cc1ccc(-c2nc3ccc(/N=N/c4ccc([N+](=O)[O-])cc4)cc3c(-c3ccccc3)c2I)cc1; target = APP Aβ40 fibrils; test = thioflavin T competition; setting = with: preformed fibrils 5 µM, thioflavin T 2 µM; how to read = binding; measurement = Ki; value = 0.204 ± 0.019 µM
